Experimental data from different studies.
Each numbered part is a random draw from the data of one study; scales do not carry over between parts.

Block 1 — technique: RNA Bind-n-Seq; molecule type: RNA; sample: in vitro; concentration: not given; baseline: input RNA pool; reading: higher = stronger binding
Target: RING finger protein unkempt homolog, zinc fingers 1-6, GST-SBP tag (UNK, Homo sapiens, UniProt Q9C0B0, residues 30-357)
Notes: RNA with constant flanks, human and mouse sites, ends assumed
Target sequence (chain): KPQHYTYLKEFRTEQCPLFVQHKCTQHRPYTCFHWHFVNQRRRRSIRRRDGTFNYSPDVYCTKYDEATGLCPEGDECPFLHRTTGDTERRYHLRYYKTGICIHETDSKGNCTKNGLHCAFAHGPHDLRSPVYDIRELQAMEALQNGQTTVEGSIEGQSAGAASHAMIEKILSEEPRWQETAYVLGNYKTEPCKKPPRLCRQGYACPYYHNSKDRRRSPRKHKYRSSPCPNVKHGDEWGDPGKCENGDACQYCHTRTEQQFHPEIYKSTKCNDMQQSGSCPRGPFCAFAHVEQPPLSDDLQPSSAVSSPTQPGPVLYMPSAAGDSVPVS
`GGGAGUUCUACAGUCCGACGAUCAUCCGGAUGAGCACCGGGCACAUGGAGGGCAACCUGCAGCUGCUGUACGUGCUGCUCACAGACUGCUAUGUCUACCUGCUCCGGAAAGGGGCCACAGAGAAGCCAUACCUGGUGGAAGAGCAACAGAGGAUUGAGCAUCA` has a bound/input enrichment of 0.0888 ratio.
`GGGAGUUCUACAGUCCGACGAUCUUUUAUGCUCCGACAAGUGCUGUGGAGAACAUACUGGAACACUUGGCGCGAGACAUUGACGUGGUUAGACCAAAUAUUGUGAAACACCCUCUGACCCAGGAAGUAAAAGAGUGUGACGGCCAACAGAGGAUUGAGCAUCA` has a bound/input enrichment of 0.486 ratio.
`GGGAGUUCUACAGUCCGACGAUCAUGUGCAAGGAGAUUAUUCCAACUAGUGAAUUUAUUAACAGUAAAUUAACAGCAAAAGCAAAUAGGCAGCUUCAAGACCCUCUAGUAAUCAUGACAGGAAACAUCCCAACAUGGCUCACUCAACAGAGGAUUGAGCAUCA` gave a bound/input enrichment of 3.93 ratio.
`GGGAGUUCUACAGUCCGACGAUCAAGGUGCUUGAACCAUAUCCAUCAAAAUUAAGCGGCCUGAAAGGGAAAAAUAUCUUCCUAGUAGCUGCUACACUCAGACCUGAGACUAUGUUUGGGCAGACAAAUUGUUGGGUUCGGCCUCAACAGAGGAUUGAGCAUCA` has a bound/input enrichment of 0.187 ratio.
For `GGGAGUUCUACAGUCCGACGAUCCCUAUUCGGAUUAUUGAUUUAAAUUUAUGUCAGCAAGUUGAUGCUGGGUUGACAUUCAACAAAAAGGAGUUUGAAAACAGCUAUAUCUUUGAUAUCAACACCAUCGACCGGAUUUUCUACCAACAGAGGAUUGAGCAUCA`, the bound/input enrichment was 0.24 ratio.
`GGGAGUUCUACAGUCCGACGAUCGUGGAUUCCCCGGAACAGCUGUCUGGAAUAAGGAUGAUUAGACAUCUCACUACUACUACUGACUAUCACACACUGGUUGCCAAUUAUAUGUCUGGGUUUCUCUCCUUAUUAGCUACAGGCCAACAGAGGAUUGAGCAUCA` has a bound/input enrichment of 0.426 ratio.
`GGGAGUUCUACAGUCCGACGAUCUACACAUCAUUUUGGAAUGACUGUAUAUCAUCUGGAUUACGUGGCUGUAUGUUAAUUGAAUUAGCUUUGAGAGGAAGGUUACAGUUAGAGGCUUGUGGAAUGAGAAGAAAAAGUCUUUUACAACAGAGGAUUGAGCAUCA` gave a bound/input enrichment of 0.423 ratio.
`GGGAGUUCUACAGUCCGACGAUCGAUUAUCUUCGUUCAAAUGGCUAUGAAGAGGCAUAUUCAGUUUUUAAAAAGGAAGCUGAAUUAGAUGUGAAUGAAGAAUUAGAUAAAAAGUAUGCUGGUCUUUUGGAAAAAAAAUGGACACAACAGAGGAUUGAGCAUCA` has a bound/input enrichment of 3.65 ratio.

Block 2 — technique: protein binding microarray; molecule type: double-stranded DNA, one strand shown; sample: in vitro; concentration: not given; baseline: not given; reading: higher = stronger binding
Target: Histone acetyltransferase KAT6A, winged helix 1, GST fusion (KAT6A, Homo sapiens, UniProt Q92794, residues 1-85)
Notes: 8-mer, flanks averaged, mean of 2 arrays, mostly near background
Construct (chain): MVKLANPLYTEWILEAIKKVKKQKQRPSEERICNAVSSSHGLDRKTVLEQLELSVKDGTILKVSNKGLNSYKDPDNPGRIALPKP
With `CGATTACC` the E-score was 0.141.
`GGCCGAAC` has an E-score of 0.204.
`AAATCGAC` gave an E-score of 0.048.
With `TCCCCGCA` the E-score was 0.304.
`ACGAGGCG` has an E-score of 0.2.
For `GTATAGGA`, the E-score was -0.0686.
The E-score of `GCGACGCA` is reported as 0.339.
With `TAGAAGGA` the E-score was 0.0666.
`GTGCACAA` has an E-score of -0.216.
For `CACTCGGC`, the E-score was 0.255.
With `ATCCAGAT` the E-score was -0.136.
`GCCCAAGA` gave an E-score of -0.135.
For `CGCACGTC`, the E-score was 0.265.
The E-score of `AAGAGTCG` is reported as -0.102.
`AGAAGCAG` gave an E-score of -0.226.
With `CGGGTCAG` the E-score was 0.287.
With `CCGGATGA` the E-score was -0.0719.
`GCTGACAA` gave an E-score of -0.00211.

Block 3 — technique: RNA Bind-n-Seq; molecule type: RNA; sample: in vitro; concentration: 365 nM; baseline: no-protein control; reading: higher = stronger binding
Target: RNA binding protein fox-1 homolog 2, RRM domain, GST-SBP tag (RBFOX2, Homo sapiens, UniProt O43251-10, residues 100-194)
Notes: natural RNA segment, single round, ends assumed
Target sequence (chain): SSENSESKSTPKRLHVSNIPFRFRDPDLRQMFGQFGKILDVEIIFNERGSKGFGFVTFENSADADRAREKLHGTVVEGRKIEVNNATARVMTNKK
Under “RBNS enrichment (R)”, `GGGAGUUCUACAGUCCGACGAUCUGUAUUUAUCCAUCAUUACUGAAGUAUUUGUUAACUAAGCUAGCAACAAAAUAAUUUCUGUACUUUGGCAAUGUUACUCUAGUGUCUUCUCCCUAAUUCUUUUGUUUCUUUGGAAUUCUCGGGUGCCAA` is recorded as 0.601.
`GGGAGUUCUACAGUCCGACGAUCCUCCUUAAUUCUGAGAGCAUGAAUAUUUGACCUUAAAUCUCCAGUGACUCAGAGCUUCACCCACAAACUCAGGAGAACAUAAGCCUGCUCGUAAAGCUCAAUCCUUCUAUUGGAAUUCUCGGGUGCCAA`: “RBNS enrichment (R)” 1.29.
`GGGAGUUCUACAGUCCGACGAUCGAGAGAAGAUUUCAGACUUCUUUUUCUCAGAAAGCAUGAAGAAUUUAUGAAGUAUGGAAAAGAAGCCCUUACAUAUUCCAGAUGUGUGCAGCAGGGGGCACUGUCCCAGCUGGAAUUCUCGGGUGCCAA` — result for “RBNS enrichment (R)”: 3.18.
For `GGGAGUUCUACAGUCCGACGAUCUGGGCCACUCAGAGCCUUCCUUGAUGCUGCCAGAGUCUUCUUAUUUAGAUUUUCUGUCUUAAACCAUUGGAAGCAAAACGGUUUUCCCAUGACAUUCUGGCCUUGGACAGUGGAAUUCUCGGGUGCCAA`, “RBNS enrichment (R)” read 0.332.
`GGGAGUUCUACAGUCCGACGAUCCGCUUGGGAAACGGGCAGUGGUAGUGGGGCGCCAGCUUGAGCUUUCCUGGCACCUGUAGCAUCGAGUGUCUUCUUUGUCUUCUCUCCUCACCCAACUCCCUCUGCCUCUCUGGAAUUCUCGGGUGCCAA`: “RBNS enrichment (R)” 1.06.
For `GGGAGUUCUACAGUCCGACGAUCGUAAUUCCCACCCCUCUUGCUUCUUCCCCACCUCACCAUCUCCCAGACCCUCUUCCCUUUGCCCUUCUCCUCCAAUACAUAAAGGACACAGACAAGGAACUUGCUGAAAGUGGAAUUCUCGGGUGCCAA`, “RBNS enrichment (R)” read 0.555.
`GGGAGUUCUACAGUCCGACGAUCCCUUAGCCAGCCAGUGACAAGUGAAUCCAGACGUCACCCAUGUGUUUUGGAACAUUUAUGUAAGAUUGAAAUGUAUUUGAGAACUGCAUUAAAACUUUUAACUAAAGCCCUGGAAUUCUCGGGUGCCAA` — result for “RBNS enrichment (R)”: 0.565.
`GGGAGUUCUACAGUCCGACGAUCUUGGUUUUCCUGUAUAGGAAUGAGAUUAAUUCCUUUCCAGGUAUUUUAUAAUUCUGGGAAGCAAAACCCAUGCCUCCCCCUAGCCAUUUUUACUGUUAUCCUAUUUAGAUUGGAAUUCUCGGGUGCCAA` — result for “RBNS enrichment (R)”: 0.426.

Block 4 — technique: RNA Bind-n-Seq; molecule type: RNA; sample: in vitro; concentration: 1 µM; notes: whole 134-nt RNA, ends assumed; together with: 150 mM KCl; baseline: input library; reading: higher = stronger binding
Target: Ras GTPase-activating protein-binding protein 1, C-terminal RGG region (G3BP1, Homo sapiens, UniProt Q13283)
Chain of UniProt Q13283 (whole entry, looked up): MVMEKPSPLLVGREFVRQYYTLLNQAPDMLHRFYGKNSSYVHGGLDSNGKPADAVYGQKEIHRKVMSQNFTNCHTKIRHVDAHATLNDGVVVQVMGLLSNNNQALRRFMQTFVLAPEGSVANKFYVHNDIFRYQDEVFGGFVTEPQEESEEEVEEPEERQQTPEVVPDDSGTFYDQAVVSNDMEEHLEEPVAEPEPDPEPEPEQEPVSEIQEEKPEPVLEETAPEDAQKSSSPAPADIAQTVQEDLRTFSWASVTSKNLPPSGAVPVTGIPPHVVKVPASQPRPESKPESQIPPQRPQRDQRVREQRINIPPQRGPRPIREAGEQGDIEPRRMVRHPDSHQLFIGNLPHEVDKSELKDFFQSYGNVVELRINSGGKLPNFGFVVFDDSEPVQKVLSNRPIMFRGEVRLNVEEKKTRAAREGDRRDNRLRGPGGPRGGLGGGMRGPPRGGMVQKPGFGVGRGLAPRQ
`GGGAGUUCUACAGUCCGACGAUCAGUCCUGUGCUACACAUCGUAUGUACCGAAUCGGGUGGGAAAAAGGGAAAAAAAGGGAAAGUAUUAUGUUACGCCGUUCGGAUCUGCACUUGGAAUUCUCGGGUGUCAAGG` gave a log2 enrichment of -0.208.
`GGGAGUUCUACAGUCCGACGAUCUGUGCUACACAUCGUAUGUACCGAAUCGGGUUUUUUUGGGGUUUUUUUGGGUUUUUUUGGGGAAAGUAUUAUGUUACGCCGUUCGGAUCUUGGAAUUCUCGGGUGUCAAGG` has a log2 enrichment of -0.546.
With `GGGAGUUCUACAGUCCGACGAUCCAAGUCCUGUGCUACACAUCGUAUGUACCGAAUCGGGAAAAAAAGGGAGGGUGGGAAAGUAUUAUGUUACGCCGUUCGGAUCUGCACUUCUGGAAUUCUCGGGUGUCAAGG` the log2 enrichment was 1.48.
`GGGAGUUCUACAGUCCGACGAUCUGGCCCUGGUGGCAUGCGGGGAGGAAGAGGUGGCCUCAUGGAUCGUGGUGGCCCCGGUGGAAUGUUCAGAGGUGGCCGUGGUGGAGACAGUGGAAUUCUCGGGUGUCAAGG` gave a log2 enrichment of 0.729.
`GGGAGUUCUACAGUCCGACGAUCAGUCCUGUGCUACACAUCGUAUGUACCGAAUCGGGGAAAGGGGUUUGGGGAAAGGGGAAAGUAUUAUGUUACGCCGUUCGGAUCUGCACUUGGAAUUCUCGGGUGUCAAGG` has a log2 enrichment of 4.02.
For `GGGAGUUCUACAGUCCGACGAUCUUGUGGCUGAGAGACAGUUUGCAAAGGAACAACAUACAGAUGGGACACUAAAGGAAGUUGGAGAAGAUUAUCAAAUCGCAAUCCCAGAUUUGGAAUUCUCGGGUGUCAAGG`, the log2 enrichment was -0.289.
The log2 enrichment of `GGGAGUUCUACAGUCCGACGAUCCCUGUGCUACACAUCGUAUGUACCGAAUCGGGUUUUUUUGGGGUUUUUUUGGUUUUUUUGGAAAGUAUUAUGUUACGCCGUUCGGAUCUGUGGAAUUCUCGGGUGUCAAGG` is reported as -1.16.
The log2 enrichment of `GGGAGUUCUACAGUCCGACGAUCGUCCUGUGCUACACAUCGUAUGUACCGAAUCGGGGUUUUGGGGUUUUGGGGUUUUGGGAAAGUAUUAUGUUACGCCGUUCGGAUCUGCACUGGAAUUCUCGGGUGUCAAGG` is reported as 0.524.
For `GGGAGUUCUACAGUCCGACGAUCACCAUGCAGGUGGGCAUCUUUGGGAAGUGGGGCAAGGGGGGGAUAGGGAGGGGGGUAACACAUUGGGAACAGGUGGUCCCAGGUCGUUUCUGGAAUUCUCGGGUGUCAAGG`, the log2 enrichment was 2.21.

A few entries again (block 2):
With `CGATTACC` the E-score was 0.141.
With `TCCCCGCA` the E-score was 0.304.
The E-score of `AAGAGTCG` is reported as -0.102.
`GCCCAAGA` gave an E-score of -0.135.
`AGAAGCAG` gave an E-score of -0.226.
With `TAGAAGGA` the E-score was 0.0666.
